Measurements gathered from unrelated publications.
Parts stem from different laboratories: compare values within a part only. ± gives the spread as reported.
Chain of UniProt Q13705 (whole entry, looked up): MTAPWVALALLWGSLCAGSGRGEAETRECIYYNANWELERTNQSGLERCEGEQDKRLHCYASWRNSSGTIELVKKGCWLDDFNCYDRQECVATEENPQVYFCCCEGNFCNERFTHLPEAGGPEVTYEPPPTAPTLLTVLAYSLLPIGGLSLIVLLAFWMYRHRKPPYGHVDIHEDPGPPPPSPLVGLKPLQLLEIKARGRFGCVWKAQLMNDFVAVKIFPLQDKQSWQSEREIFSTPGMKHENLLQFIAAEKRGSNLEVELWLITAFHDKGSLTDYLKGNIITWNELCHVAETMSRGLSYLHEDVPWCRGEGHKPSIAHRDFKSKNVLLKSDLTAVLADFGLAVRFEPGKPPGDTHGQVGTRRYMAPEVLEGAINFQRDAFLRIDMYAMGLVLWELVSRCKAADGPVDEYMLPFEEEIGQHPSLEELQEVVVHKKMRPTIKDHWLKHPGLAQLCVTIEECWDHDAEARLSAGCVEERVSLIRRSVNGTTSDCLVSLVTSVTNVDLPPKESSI
Chain of UniProt Q9BVS4 (whole entry, looked up): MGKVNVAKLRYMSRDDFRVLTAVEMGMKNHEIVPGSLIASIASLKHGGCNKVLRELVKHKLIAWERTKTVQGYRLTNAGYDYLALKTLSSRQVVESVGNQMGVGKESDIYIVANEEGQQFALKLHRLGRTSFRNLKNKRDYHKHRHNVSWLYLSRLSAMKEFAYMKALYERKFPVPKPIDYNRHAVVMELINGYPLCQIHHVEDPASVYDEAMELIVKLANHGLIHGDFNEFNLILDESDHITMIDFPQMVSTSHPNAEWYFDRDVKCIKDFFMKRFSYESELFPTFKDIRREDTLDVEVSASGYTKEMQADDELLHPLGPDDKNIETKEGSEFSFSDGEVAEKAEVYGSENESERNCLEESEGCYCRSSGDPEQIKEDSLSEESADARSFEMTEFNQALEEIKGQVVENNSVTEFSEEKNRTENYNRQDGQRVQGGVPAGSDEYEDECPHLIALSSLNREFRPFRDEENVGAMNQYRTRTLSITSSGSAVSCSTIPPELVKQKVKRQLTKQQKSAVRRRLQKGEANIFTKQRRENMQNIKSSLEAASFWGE
Chain of UniProt P42336 (whole entry, unmodified, looked up): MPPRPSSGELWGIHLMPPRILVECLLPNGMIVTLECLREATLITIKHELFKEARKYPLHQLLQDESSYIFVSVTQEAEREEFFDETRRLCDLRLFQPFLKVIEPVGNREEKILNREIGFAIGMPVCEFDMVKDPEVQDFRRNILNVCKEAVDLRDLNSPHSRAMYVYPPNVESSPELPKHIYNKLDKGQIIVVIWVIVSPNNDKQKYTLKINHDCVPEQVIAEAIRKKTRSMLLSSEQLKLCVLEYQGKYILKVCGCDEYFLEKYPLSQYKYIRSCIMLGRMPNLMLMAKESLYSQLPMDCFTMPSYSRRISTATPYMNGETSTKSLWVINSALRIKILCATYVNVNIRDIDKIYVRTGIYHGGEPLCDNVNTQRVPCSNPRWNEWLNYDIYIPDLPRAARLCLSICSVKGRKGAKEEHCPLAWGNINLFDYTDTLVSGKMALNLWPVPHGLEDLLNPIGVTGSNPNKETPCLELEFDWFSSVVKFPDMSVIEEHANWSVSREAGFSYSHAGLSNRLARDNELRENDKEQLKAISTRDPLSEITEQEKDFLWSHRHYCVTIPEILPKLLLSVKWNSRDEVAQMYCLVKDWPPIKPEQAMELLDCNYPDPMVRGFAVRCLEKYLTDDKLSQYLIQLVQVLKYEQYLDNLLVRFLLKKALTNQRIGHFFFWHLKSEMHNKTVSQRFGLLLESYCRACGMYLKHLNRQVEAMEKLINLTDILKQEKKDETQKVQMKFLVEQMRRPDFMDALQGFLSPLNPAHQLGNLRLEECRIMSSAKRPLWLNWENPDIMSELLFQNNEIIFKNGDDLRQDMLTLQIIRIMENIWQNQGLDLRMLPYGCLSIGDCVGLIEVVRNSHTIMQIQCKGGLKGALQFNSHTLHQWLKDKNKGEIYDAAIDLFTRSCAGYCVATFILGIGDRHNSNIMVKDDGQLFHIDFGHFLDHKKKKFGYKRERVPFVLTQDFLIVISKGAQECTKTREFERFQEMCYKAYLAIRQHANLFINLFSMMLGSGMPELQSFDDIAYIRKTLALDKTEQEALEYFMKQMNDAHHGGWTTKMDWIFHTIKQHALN
Chain of UniProt P49336 (whole entry, looked up): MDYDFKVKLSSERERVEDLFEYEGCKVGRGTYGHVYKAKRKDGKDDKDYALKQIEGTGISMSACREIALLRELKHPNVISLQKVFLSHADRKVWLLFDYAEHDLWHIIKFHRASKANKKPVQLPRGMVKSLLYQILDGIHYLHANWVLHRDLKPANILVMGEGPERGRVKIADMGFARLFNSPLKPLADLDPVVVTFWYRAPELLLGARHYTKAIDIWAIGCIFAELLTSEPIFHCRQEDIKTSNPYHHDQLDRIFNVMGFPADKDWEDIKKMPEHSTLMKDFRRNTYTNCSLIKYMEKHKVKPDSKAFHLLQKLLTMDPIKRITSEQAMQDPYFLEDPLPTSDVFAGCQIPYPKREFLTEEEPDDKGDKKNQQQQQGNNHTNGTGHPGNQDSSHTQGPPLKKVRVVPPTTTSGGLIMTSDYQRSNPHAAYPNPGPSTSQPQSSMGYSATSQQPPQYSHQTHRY
Chain of UniProt P29323 (whole entry, looked up): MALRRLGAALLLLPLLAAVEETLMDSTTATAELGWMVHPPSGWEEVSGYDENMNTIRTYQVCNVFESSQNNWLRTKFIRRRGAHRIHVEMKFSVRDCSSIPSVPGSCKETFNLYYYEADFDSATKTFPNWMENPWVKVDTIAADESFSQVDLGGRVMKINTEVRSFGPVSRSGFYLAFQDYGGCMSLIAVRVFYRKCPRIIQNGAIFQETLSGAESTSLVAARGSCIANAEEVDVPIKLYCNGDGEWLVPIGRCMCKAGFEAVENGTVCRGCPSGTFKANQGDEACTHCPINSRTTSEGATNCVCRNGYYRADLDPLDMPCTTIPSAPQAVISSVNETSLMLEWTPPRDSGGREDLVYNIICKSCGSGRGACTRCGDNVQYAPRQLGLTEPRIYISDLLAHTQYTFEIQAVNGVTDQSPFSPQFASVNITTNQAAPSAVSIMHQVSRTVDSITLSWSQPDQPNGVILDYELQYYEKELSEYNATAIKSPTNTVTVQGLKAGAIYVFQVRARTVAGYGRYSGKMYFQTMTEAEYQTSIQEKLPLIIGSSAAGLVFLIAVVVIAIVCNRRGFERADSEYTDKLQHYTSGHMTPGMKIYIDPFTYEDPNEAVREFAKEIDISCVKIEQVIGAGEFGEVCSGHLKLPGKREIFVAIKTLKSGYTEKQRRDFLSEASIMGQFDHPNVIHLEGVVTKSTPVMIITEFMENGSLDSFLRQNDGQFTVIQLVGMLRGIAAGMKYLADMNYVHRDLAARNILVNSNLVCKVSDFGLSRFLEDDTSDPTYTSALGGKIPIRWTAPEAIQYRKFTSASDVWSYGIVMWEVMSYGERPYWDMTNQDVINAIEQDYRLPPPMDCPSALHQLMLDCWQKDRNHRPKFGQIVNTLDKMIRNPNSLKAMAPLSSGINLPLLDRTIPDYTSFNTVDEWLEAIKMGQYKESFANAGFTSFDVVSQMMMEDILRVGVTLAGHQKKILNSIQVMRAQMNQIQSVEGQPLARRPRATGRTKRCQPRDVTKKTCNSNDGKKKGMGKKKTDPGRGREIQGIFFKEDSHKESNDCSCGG

Set 1
Structure (SMILES): C=CCc1ccc(O)c(-c2ccc(O)c(CC=C)c2)c1
Observed: chloride current
Action: inhibitor
Method: whole-cell voltage clamp
Quantity: IC50
ANO1 del476-501/F803W: Anoctamin-1 (ANO1, Homo sapiens, UniProt Q5XXA6, del476-501/F803W)
Chain of UniProt Q5XXA6 (whole entry, unmodified, looked up): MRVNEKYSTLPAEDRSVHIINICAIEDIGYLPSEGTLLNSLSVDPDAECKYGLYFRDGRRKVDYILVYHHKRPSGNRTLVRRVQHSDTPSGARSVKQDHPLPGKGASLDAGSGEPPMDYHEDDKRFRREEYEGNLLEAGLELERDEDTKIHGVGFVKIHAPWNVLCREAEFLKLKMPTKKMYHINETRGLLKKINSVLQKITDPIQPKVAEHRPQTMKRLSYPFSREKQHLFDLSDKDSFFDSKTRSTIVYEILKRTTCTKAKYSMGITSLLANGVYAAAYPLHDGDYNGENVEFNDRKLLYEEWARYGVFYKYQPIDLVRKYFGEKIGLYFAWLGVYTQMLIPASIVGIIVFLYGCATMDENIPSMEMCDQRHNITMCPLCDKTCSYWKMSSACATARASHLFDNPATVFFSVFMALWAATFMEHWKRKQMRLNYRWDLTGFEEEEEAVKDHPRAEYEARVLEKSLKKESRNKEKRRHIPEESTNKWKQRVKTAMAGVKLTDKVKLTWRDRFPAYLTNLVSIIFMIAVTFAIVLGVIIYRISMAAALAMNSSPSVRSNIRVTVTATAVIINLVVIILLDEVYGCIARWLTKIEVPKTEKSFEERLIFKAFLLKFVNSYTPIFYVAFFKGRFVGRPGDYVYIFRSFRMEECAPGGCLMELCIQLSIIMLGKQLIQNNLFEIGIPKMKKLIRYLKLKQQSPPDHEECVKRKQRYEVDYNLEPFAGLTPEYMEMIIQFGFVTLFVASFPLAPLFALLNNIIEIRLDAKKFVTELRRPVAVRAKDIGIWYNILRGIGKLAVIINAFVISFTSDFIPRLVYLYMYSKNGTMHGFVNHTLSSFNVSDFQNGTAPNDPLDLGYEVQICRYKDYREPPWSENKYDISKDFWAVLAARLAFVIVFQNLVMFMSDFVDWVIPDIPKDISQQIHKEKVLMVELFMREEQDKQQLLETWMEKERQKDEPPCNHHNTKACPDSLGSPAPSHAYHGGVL
target = ANO1 del476-501/F803W; conditions = 20 mV holding voltage; result = 4.82 µM
target = ANO1 del476-501/F803W; conditions = 40 mV holding voltage; result = 5.21 µM
target = Anoctamin-1 (ANO1, Homo sapiens, UniProt Q5XXA6, del476-501/F807A); conditions = mutant F781A at 100 mV, with: 300 nM Ca2+; result = 18.4 ± 0.5 µM
target = Anoctamin-1 (ANO1, Homo sapiens, UniProt Q5XXA6, del476-501/F807Y); conditions = 60 mV holding voltage; result = 10.6 µM
target = Anoctamin-1 (ANO1, Homo sapiens, UniProt Q5XXA6, del476-501/F807I); conditions = F781I mutant at -100 mV; result = 17.3 µM

Set 2
Species: mouse
Matrix: microsomes or S9
Tested at: 2 µM
Time: 0.5 h
Quantity: remaining compound
SMILES = O=C(NCC1CCCO1)c1ccc(NC(=O)c2nc(-n3cnnc3)ccc2Br)cc1 (centres unmarked); result = 75.1%
SMILES = CCOc1cc(CNC(C)c2ccccc2)ccc1OCC(C)C (centres unmarked); result = < 1%
SMILES = COc1c(Br)cc(OCCc2c(O)nc(C)c(Br)c2O)cc1Br; result = 8.9%
SMILES = CCc1ncc(CN(C)c2ccc(-n3ccc(C)n3)nn2)s1; result = 0.687%
SMILES = O=C(NC1CCN(Cc2ccc(OC3CCNCC3)c(Br)c2)CC1)c1ccc(-c2ccccc2)o1; result = > 100%

Set 3
SMILES: CNCc1ccccc1-c1csc([C@H](C)Nc2nc(C)nc3cc(OC)c(OC)cc23)c1
Observed: cell-free assay
Method: competition with immobilised ligand
Tested at: 1 µM
Quantity: remaining binding
target = HASPIN (Homo sapiens, UniProt Q8TF76); result = 100%
target = NEK10 (Homo sapiens, UniProt Q6ZWH5); result = 78%
target = OXSR1 (Homo sapiens, UniProt O95747); result = 78%
target = EPHB2 (Homo sapiens, UniProt P29323); result = 100%
target = EIF2AK1 (Homo sapiens, UniProt Q9BQI3); result = 100%
target = BMP2K (Homo sapiens, UniProt Q9NSY1); result = 79%
target = ALK (Homo sapiens, UniProt Q9UM73, L1196M); result = 93%
target = PIK3CA (Homo sapiens, UniProt P42336, H1047Y); result = 100%
target = STK38L (Homo sapiens, UniProt Q9Y2H1); result = 94%
target = RIOK2 (Homo sapiens, UniProt Q9BVS4); result = 100%
target = Tyrosine-protein kinase ABL1, non-phosphorylated (ABL1, Homo sapiens, UniProt P00519, H396P); result = 89%
target = CDK8 (Homo sapiens, UniProt P49336); result = 84%
target = ACVR2B (Homo sapiens, UniProt Q13705); result = 100%

Set 4
Target: Cyclin-dependent kinase 2, with cyclin A (CDK2, Homo sapiens, UniProt P24941)
Observed: cell-free assay
Tested at: 0.5 µM
Quantity: remaining signal
SMILES = O=C1Cc2c([nH]c3ccc(Br)cc23)-c2ccccc2N1; result = 37.4%
SMILES = Cc1ccc(NC2=CC(=O)c3sc(C)nc3C2=O)cc1; result = 88.1%
SMILES = COc1cc2c(Nc3ccc(Br)cc3F)ncnc2cc1OCC1CCN(C)CC1; result = 94.6%
